Results collected from several papers.
Numbered parts are unrelated; each lists some results of a single study.
Sequence of UniProt P11309 (whole entry, looked up): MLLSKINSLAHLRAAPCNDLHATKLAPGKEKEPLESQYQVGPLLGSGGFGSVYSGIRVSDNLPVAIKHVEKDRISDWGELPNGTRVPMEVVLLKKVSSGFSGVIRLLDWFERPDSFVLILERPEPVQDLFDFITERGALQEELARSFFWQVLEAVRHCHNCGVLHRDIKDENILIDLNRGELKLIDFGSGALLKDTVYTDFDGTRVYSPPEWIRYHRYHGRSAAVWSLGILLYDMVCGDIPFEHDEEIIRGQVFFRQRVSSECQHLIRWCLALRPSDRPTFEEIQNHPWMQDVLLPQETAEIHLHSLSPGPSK
Sequence of UniProt Q05397 (whole entry, looked up): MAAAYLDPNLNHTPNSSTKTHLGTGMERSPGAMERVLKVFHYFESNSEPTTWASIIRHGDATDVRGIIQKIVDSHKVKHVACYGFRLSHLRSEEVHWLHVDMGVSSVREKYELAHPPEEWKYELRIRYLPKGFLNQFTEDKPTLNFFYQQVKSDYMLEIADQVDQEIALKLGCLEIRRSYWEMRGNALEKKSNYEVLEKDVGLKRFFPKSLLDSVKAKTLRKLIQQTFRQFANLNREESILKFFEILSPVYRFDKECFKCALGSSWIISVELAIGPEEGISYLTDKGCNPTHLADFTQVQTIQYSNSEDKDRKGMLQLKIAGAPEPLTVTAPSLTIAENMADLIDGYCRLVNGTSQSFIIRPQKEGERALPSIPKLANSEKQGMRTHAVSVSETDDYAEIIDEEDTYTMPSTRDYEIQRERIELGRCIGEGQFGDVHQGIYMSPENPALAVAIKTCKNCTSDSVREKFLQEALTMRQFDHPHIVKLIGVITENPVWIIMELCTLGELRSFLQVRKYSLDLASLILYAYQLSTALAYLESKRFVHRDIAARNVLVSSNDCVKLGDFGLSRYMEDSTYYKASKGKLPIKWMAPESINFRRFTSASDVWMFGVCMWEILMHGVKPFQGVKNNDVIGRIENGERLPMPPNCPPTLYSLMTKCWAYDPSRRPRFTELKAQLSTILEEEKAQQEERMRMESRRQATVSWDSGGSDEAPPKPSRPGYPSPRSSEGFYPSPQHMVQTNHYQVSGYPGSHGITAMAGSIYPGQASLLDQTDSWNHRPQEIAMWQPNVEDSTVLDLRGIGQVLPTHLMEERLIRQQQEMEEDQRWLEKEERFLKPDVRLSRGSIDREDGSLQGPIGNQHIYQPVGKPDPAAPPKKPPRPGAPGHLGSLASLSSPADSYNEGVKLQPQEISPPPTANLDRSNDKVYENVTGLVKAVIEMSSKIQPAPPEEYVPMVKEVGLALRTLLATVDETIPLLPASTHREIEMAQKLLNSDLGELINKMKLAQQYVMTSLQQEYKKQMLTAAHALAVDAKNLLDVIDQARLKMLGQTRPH
Sequence of UniProt Q13705 (whole entry, looked up): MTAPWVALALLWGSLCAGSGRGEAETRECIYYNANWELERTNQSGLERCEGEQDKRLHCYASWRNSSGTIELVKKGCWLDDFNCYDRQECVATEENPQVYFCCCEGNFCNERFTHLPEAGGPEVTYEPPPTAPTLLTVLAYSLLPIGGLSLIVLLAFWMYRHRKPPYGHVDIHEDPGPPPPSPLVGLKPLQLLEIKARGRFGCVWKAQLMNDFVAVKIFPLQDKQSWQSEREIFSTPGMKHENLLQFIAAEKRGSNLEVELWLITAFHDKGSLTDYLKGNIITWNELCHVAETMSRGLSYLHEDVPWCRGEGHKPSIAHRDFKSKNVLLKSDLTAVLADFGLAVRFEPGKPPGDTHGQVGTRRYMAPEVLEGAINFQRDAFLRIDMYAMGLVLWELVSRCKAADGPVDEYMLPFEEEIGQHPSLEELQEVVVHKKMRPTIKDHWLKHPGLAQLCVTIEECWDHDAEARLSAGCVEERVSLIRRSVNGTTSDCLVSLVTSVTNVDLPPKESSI
Sequence of UniProt P31152 (whole entry, looked up): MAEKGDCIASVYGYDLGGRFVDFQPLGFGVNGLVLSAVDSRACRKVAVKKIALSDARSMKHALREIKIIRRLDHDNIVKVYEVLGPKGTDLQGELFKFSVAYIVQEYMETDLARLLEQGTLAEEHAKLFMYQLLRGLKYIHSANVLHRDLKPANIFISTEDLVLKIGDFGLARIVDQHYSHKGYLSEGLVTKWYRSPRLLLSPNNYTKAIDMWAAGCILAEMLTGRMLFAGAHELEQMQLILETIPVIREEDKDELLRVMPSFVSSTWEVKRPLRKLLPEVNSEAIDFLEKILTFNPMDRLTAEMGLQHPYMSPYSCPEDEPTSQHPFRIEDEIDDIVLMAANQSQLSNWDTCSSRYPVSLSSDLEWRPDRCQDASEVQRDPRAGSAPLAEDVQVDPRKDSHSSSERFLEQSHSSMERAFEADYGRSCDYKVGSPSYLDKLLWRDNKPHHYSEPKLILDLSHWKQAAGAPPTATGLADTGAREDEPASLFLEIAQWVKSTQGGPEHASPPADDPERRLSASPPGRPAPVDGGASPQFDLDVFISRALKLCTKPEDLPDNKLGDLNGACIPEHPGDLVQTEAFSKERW
Sequence of UniProt P42338 (whole entry, looked up): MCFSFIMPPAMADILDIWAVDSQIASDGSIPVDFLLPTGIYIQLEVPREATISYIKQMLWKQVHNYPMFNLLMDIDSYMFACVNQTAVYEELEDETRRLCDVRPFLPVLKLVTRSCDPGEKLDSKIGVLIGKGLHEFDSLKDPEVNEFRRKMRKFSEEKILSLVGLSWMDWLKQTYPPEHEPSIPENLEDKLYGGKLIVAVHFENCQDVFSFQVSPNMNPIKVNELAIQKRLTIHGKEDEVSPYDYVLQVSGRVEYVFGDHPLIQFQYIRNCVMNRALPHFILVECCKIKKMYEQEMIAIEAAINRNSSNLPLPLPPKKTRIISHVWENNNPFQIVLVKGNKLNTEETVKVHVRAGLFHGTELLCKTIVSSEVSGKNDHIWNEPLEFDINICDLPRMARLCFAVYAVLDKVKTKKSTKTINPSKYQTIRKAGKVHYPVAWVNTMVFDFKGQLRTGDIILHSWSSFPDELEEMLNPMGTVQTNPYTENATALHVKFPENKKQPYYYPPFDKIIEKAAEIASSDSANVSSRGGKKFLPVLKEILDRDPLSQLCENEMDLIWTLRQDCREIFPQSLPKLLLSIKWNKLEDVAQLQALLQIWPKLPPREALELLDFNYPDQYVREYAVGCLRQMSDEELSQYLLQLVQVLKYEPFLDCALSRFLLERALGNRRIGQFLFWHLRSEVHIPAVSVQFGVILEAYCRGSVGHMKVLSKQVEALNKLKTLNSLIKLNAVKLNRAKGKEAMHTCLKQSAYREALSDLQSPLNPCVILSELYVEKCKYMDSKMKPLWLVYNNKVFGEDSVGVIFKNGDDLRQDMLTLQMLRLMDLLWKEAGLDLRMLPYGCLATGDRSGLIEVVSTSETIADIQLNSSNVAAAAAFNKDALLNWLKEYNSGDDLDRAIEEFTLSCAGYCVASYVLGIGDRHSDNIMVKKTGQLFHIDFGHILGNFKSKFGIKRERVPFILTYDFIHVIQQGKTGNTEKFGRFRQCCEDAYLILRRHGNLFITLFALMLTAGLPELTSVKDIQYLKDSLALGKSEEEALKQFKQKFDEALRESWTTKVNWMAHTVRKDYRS
Sequence of UniProt Q9UBF8 (whole entry, looked up): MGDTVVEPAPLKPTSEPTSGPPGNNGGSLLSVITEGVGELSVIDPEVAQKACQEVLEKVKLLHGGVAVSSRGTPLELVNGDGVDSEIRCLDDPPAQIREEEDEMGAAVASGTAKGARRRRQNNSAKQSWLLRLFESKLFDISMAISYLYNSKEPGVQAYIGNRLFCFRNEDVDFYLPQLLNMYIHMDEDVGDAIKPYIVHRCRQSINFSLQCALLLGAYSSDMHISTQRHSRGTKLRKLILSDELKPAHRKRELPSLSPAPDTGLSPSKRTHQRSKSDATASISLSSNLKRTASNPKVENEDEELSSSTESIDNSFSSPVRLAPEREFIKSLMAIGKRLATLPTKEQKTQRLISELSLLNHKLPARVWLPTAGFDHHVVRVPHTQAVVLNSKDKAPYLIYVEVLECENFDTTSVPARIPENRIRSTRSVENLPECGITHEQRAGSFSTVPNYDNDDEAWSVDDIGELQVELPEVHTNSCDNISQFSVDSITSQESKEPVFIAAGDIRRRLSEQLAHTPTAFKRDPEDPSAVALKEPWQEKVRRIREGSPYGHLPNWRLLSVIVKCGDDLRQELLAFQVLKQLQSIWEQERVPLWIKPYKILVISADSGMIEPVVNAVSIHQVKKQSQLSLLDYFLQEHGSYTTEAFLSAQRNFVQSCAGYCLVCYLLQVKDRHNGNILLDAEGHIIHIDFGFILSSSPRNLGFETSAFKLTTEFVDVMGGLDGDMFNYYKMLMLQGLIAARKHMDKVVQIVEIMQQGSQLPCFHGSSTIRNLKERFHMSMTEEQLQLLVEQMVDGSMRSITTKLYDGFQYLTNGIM

Set 1
SMILES: CN(C(=O)c1ccccc1)c1cc(N(C)c2ccc3c(c2)CCc2ccc(C(=O)NCCN4CCOCC4)cc2C3=O)ccc1F
Read-out: cell-free assay
Technique: competition with immobilised ligand
Concentration: 1 µM
target | remaining binding [%]
ACVR2B (Homo sapiens, UniProt Q13705) | 100
TEK (Homo sapiens, UniProt Q02763) | 63
PIM1 (Homo sapiens, UniProt P11309) | 88
PI4KB (Homo sapiens, UniProt Q9UBF8) | 100
PIK3CB (Homo sapiens, UniProt P42338) | 90
PTK2 (Homo sapiens, UniProt Q05397) | 91
MAPK4 (Homo sapiens, UniProt P31152) | 100

Set 2
Host: mouse
Sample: microsomes or S9
Concentration: 2 µM
Time: 0.5 h
SMILES | remaining compound
COc1ccc(OCC(=O)N(Cc2ccc(Br)o2)C2CCS(=O)(=O)C2)cc1 (stereo not shown) | > 100%
c1ccc2c(-c3noc4c3CNCC4)cccc2c1 | 4.91%
Cc1nc2c([nH]1)CCC(C(=O)Nc1onc3c1CCCC3)C2 (stereo not shown) | 0.386%
CCc1noc(CC)c1CC(=O)NCC1(CC)CCCCC1 | 0.037%
Nc1nc(F)c2ncn(C3CC(O)C(CO)O3)c2n1 (stereo not shown) | 37.7%
COc1nc(NC(C)C)nc(N2C(=N)NC(=O)C2C)n1 (stereo not shown) | 81.5%
CCN(C(=O)c1ccccc1)[C@@H]1CCO[C@H](c2ccc(C(=O)Nc3ncccc3C)cc2)C1 | 81.4%

Set 3
Target: Serine/threonine-protein kinase 16 (STK16, Homo sapiens, UniProt O75716)
Sequence of UniProt O75716 (whole entry, looked up): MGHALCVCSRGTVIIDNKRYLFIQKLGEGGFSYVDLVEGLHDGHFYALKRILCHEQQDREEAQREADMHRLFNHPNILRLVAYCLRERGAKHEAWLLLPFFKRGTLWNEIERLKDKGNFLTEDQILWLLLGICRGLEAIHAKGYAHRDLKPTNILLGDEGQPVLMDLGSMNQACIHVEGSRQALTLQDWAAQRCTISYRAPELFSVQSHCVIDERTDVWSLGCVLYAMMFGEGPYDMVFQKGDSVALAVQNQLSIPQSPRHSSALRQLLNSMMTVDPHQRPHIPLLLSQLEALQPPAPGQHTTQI
Read-out: enzyme activity
Action: inhibitor
Concentration: 0.5 µM
Reference: control
SMILES | remaining activity [%]
COc1ccc(CNC(=O)Nc2ncc([N+](=O)[O-])s2)cc1 | 99.9
CO[C@H]1C[C@@H]2CC[C@@H](C)[C@@](O)(O2)C(=O)C(=O)N2CCCC[C@H]2C(=O)O[C@H]([C@H](C)C[C@@H]2CC[C@@H](O)[C@H](OC)C2)CC(=O)[C@H](C)/C=C(\C)[C@@H](O)[C@@H](OC)C(=O)[C@H](C)C[C@H](C)/C=C/C=C/C=C/1C | 112
Nc1[nH]nc2nc3ccccc3nc12 | 91.9
Cc1ccc(Nc2nccc(N(C)c3ccc4c(C)n(C)nc4c3)n2)cc1S(N)(=O)=O | 43.8
O=C(O)c1ccc2c3c1cccc3c(=O)n1c3ccccc3nc21 | 106
CN(C)c1ccc(C=C2C(=O)Nc3ccccc32)cc1 | 87.9
O=c1c2ccccc2[nH]c(=S)n1CCN1CCC(=C(c2ccc(F)cc2)c2ccc(F)cc2)CC1 | 104
O=C(CCCc1ccc(-c2ccccc2F)cc1)Nc1ccc(O)cc1 | 111
COc1cc2ncnc(Nc3ccc(Oc4ccccc4)cc3)c2cc1OC | 107
Cc1ccc(NC(=O)c2ccc(CN3CCN(C)CC3)cc2)cc1Nc1nc(-c2cccnc2)cs1 | 103
Nc1ccc2ncnc(NCCc3ccc(Oc4ccccc4)cc3)c2c1 | 94.7
OCC(O)CCON=C1C(c2c(O)[nH]c3ccccc23)=Nc2ccccc21 (stereo not shown) | 12.7
O=C(Nc1cccc(Nc2cc(Nc3cccc(C(F)(F)F)c3)ncn2)c1)C1CC1 | 107
COc1cc2ncnc(Nc3ccc(F)c(Cl)c3)c2cc1OCCCN1CCOCC1 | 96.8

Set 4
Cell line: HaCaT
Concentration: 100 µM
Time: 60 h
Structure (SMILES) | viability
COc1ccc(C(Cl)=C(c2ccc(OC)cc2)c2ccc(OC)cc2)cc1 | 115%
COc1ccccc1OCCNCC(O)COc1cccc2[nH]c3ccccc3c12 (stereo not shown) | 16%
COCCCN1CCC(NC(=O)c2cc(Cl)c(N)c3c2OCC3)CC1 | 113%
O=C(CCCl)NCc1ccccc1 | 145%
CC(C)Oc1ccc2c(=O)c(-c3ccccc3)coc2c1 | 125%
Cc1c(O)c(=O)n(-c2ccccc2)n1C | 156%
C[N+](C)(C)CCOC(N)=O | 130%
CCCc1nc(C(C)(C)O)c(C(=O)OCc2oc(=O)oc2C)n1Cc1ccc(-c2ccccc2-c2nnn[nH]2)cc1 | 141%
CC(=O)c1ccc(S(=O)(=O)NC(=O)NC2CCCCC2)cc1 | 130%

A few entries again (set 2):
SMILES | remaining compound
c1ccc2c(-c3noc4c3CNCC4)cccc2c1 | 4.91%
Cc1nc2c([nH]1)CCC(C(=O)Nc1onc3c1CCCC3)C2 (stereo not shown) | 0.386%
CCc1noc(CC)c1CC(=O)NCC1(CC)CCCCC1 | 0.037%
Nc1nc(F)c2ncn(C3CC(O)C(CO)O3)c2n1 (stereo not shown) | 37.7%
COc1nc(NC(C)C)nc(N2C(=N)NC(=O)C2C)n1 (stereo not shown) | 81.5%
